Measurements from different studies.
Protocols differ between the studies behind these lines. “And” joins repeats or separate records; there may be more than shown. Numbers after ± are the reported error.

| SMILES | tested on | test | test system | conditions | how to read | measurement | result |
| --- | --- | --- | --- | --- | --- | --- | --- |
| Cn1cc(-c2ccc(-c3cncc(Cl)c3N3CCC4(CCNC4=O)CC3)cc2)cn1 | COLO 205 | gene expression, microarray, measured: RSAD2 mRNA |  | concentration not given, 2 h | reference: untreated cells | log2 fold change | 2.56 |
| Nc1ncnc2c1ncn2[C@@H]1O[C@H](CO)[C@@H](O)[C@H]1O | activated human T cells |  |  | concentration not given | reference: DMSO | T cell proliferation | 34.4% and 12.5% and 17% and 31.3% and 24.2% |
| Cn1cc(Nc2nccc(-c3ccc4c(c3)CN(C3COC3)CC[C@H]4NC(=O)c3cn(C(C)(C)C)nn3)n2)cn1 | mouse splenic B cells | measured: ERK/MAPK signalling |  | 30 mg/kg, IgD-activated in vivo | reference: vehicle, direction not given | pathway activation z-score | 2.12 |
| COc1ccc(NC(=O)c2c(Nc3ccccc3)sc(C#N)c2NC(=O)CNc2ccc(Cl)cc2)cc1 | HepG2 | annexin V-FITC/PI |  | concentration not given |  | necrotic cells | 3.14 ± 1.3% |
| c1ccc2[nH]ccc2c1 | HCT-8 | RNA-seq, measured: PPP1R32 |  | concentration not given |  | mRNA level, LS mean | 1.54 counts per million |
| O=C1N(Cc2ccccc2Cl)c2ccccc2C12NN=C(c1ccccc1)S2 (stereo not shown) | SK-N-BE(2) and SK-N-SH neuroblastoma | MTT |  | 10 µM, 24 h |  | viability loss | 50 to 60% |
| CCn1cc(-c2cc(Cn3ccnc3)cc3c2CCN([C@H](c2cc(OC)ccn2)C2CC2)C3=O)c(C(F)(F)F)n1 | PSN1 | cell growth, inhibitor |  | 120 h |  | EC50 | 205 nM |
| CCCC(=O)Oc1c(C)c(O)c(C(=O)/C=C/c2ccccc2)c(OC)c1C | FaDu | SRB |  |  | reference: normal over FaDu IC50 | selectivity index | 1.05 |
| O=C(Nc1nnc2n3c(nc(-c4ccc(Cl)cc4)c1-2)SCC3=O)c1ccccc1 | MDA-MB-231/ATCC | NCI60 SRB |  | 10 µM |  | growth percent | 86.1% |
| C=Cc1c2[n-]c(c1C)/C=c1\[n-]/c(c(C)c1C=C)=C\c1[n-]c(c(CCC(=O)O)c1C)/C=c1\[n-]c(c(C)c1CCC(=O)O)=C2.[Sn+4] | SH-SY5Y | RNA-seq, measured: EDN1 mRNA |  | 5 µM, 5 h | reference: untreated cells | fold change | 5.68 |
| C=CC(=O)c1cccnc1Nc1cc(C(F)(F)F)ccc1OCc1ccccc1 | MCF7 | firefly luciferase reporter |  | 100 µM, 6 h | reference: vehicle | TEAD reporter activity | 1.8 ± 0.1% |
| Cc1c(C(=O)O)ccc2c3n(nc12)[C@@H]1[C@H](C3)N(CC2CC2)[C@@]2(C(=O)Nc3cc(Cl)ccc32)[C@H]1c1cccc(Cl)c1F | JAR (MDM2-amplified) | cell proliferation, alamarBlue |  | 120 h |  | IC50 | 24 nM |
| COc1cc(N2CCC(N3CCN(C)CC3)CC2)ccc1Nc1ncc(Cl)c(Nc2ccccc2P(C)(C)=O)n1 | NCI-H2228 (EML4-ALK variant 3) | cell viability |  |  |  | Emax | 38.4% |
| CCn1cc(-c2cc(Cn3ccoc3=N)cc3c2CCN([C@@H](C)c2cc(OC)ccn2)C3=O)c(C(F)(F)F)n1 | COV362 | cell growth, inhibitor |  | 120 h |  | EC50 | 866 nM |
| CC(C)(C)c1nc(-c2cccc(NS(=O)(=O)c3c(F)cccc3F)c2F)c(-c2ccnc(N)n2)s1 | A2780/CP | annexin V/PI flow cytometry |  | concentration not given, 48 h | reference: untreated | early apoptotic cells | 42.3 ± 4.7% |
| CC(C)(C)C(=O)Oc1ccc(S(=O)(=O)Nc2ccccc2C(=O)NCC(=O)O)cc1 | human peripheral blood neutrophils | flow cytometry FSC/SSC |  | 50 µM, with: TNF-α 5 ng/mL, MPO-ANCA immune complex | reference: unstimulated neutrophils | neutrophil swelling | 2.62 fold change and 2.19 fold change and 3.95 fold change and 3.03 fold change |
| O=C(O[C@]12C[C@H]3C[C@H](C[C@H](C3)C1)C2)c1ccc(NCc2cc(O)ccc2O)cc1 | Toxoplasma gondii | parasite growth, luciferase reporter | HFF, tachyzoite | 72 h |  | EC90 | 11600 nM |
| CC(=O)c1nn(-c2ccc(Cl)cc2)/c(=N/N=C(\C)c2ccc(NC(=O)c3ccc(Cl)cc3)cc2)s1 | MCF7 |  |  | 5 µM |  | viability | 49.3% |
| C[n+]1cc2c3c(ccc2c2ccc4cc5c(cc4c21)OCO5)OCO3 | Toxoplasma gondii | parasite growth | HFF, bradyzoite, glutamine-induced |  |  | EC50 | 375 nM |
| O=C(O)c1cc(Cl)ccc1S(=O)(=O)NCCCCN1C(=O)c2cccc3cccc(c23)C1=O | Lgr5+ stem cells | lineage tracing | mouse intestinal enteroids | concentration not given, day 3 post-irradiation, 5 Gy, pretreated |  | Tdtomato+ crypt cells | 11.6 ± 0.6 cells/50µm |
| Cc1cccc(-c2[nH]c(CNc3ccccc3F)nc2-c2ccc3ncnn3c2)n1 | MM1.S | XTT |  | 0.2 µM | reference: untreated | viability | 91% |
| Cl.Cl.NCCNS(=O)(=O)c1ccc(Cl)c2ccncc12 | SK-OV-3 | ATP | 2D monolayer culture | 10 µM, 4 days | reference: untreated | relative cell number | 119% |

Excerpt of the above:
| SMILES | tested on | test | test system | conditions | how to read | measurement | result |
| --- | --- | --- | --- | --- | --- | --- | --- |
| COc1cc(N2CCC(N3CCN(C)CC3)CC2)ccc1Nc1ncc(Cl)c(Nc2ccccc2P(C)(C)=O)n1 | NCI-H2228 (EML4-ALK variant 3) | cell viability |  |  |  | Emax | 38.4% |
| CCCC(=O)Oc1c(C)c(O)c(C(=O)/C=C/c2ccccc2)c(OC)c1C | FaDu | SRB |  |  | reference: normal over FaDu IC50 | selectivity index | 1.05 |
| Cn1cc(-c2ccc(-c3cncc(Cl)c3N3CCC4(CCNC4=O)CC3)cc2)cn1 | COLO 205 | gene expression, microarray, measured: RSAD2 mRNA |  | concentration not given, 2 h | reference: untreated cells | log2 fold change | 2.56 |
